Results pooled from the literature.
Protocols differ between the studies behind these lines. Numbers after ± are the reported error.

`O=C(O)c1cc(-c2ccc(F)cc2F)ccc1O` has an EC20 of > 200 µM (cytochrome c release, ELISA; BALB/cByJ female mouse liver mitochondria; 30 min; baseline: alamethicin maximal release).
The tissue uptake of `CCCC[C@@H]1NC(=O)[C@@H](NC(=O)[C@H](CCC(=O)O)NC(=O)CNC(=O)CN2CCN(CC(=O)O)CCN(CC(=O)O)CCN(CC(=O)O)CC2)CCCCNC(=O)C[C@@H](C(N)=O)NC(=O)[C@H](C(C)C)NC(=O)[C@@H]2CCCN2C(=O)[C@H](CCCNC(=N)N)NC(=O)CNC(=O)[C@H](Cc2c[nH]c3ccccc23)NC(=O)[C@H](CCCNC(=N)N)NC(=O)[C@@H](Cc2ccccc2)NC(=O)[C@H](Cc2c[nH]cn2)NC(=O)[C@H](CCC(=O)O)NC1=O` [indium-111 labelled] is reported as 0.06 ± 0.03 %ID/g (C57 mice, B16/F10 lung metastatic melanoma, skin; intravenous, 0.037 MBq, 24 h).
For `C#C[C@]1(CO)O[C@@H](n2cnc3c(N)nc(F)nc32)C[C@@H]1O`, the AUC(0-168 h) was 0.867 µM·h (human, plasma; oral, 10 mg once weekly, week 3).
The concentration of `N[C@@H](CC(=O)O)Cn1nnc(-c2ccc(Oc3ncc(Cl)cc3F)cc2)n1` is reported as ~30 ng/mL (human, blood; 70 mg single dose, 72 h).
The uptake ratio of `CC(C)[C@H](NC(=O)[C@@H]1CCCN1C(=O)[C@H](CCCNC(=N)N)NC(=O)[C@H](CS)NC(=O)[C@H](Cc1c[nH]c2ccccc12)NC(=O)[C@H](CCCNC(=N)N)NC(=O)[C@@H](Cc1ccccc1)NC(=O)[C@H](Cc1c[nH]cn1)NC(=O)[C@H](CCC(=O)O)NC(=O)[C@H](CS)NC(=O)[C@H](CS)NC(=O)[C@H](CCCCN)NC(=O)[C@@H]1CC(=O)N[C@@H](CCCNC(=N)N)C(=O)N[C@@H]([C@@H](C)O)C(=O)N[C@@H](CC(=O)O)C(=O)N[C@H](Cc2ccc(O)cc2)C(=O)N1)C(N)=O` [technetium-99m labelled] is reported as 1.36 (C57 mouse, female, B16/F1 melanoma; intravenous, 2 h, with: NDP-MSH 10 µg co-injected; baseline: tumour over liver).
With `COc1c(O)cc2oc3cc(O)cc(O)c3c(=O)c2c1C/C=C(\C)CCC=C(C)C` the AUC(0-24 h) was 561 ± 78 µg·h/mL (UHPLC, non-compartmental; mice, plasma; oral, 700 mg/kg, virgin coconut oil suspension).
`Cc1cc(C(=O)NC(C)(C)COc2cccc3c2C(N)=NS(=O)(=O)N3)cc(C)n1` has a bioavailability of 0.22% (male Sprague-Dawley rat, plasma; oral, 30 mg/kg, single dose).
Under “in vivo intrinsic clearance”, `CCCCCCCCCCN(C)C` is recorded as 321 mL/h/g liver (liver S9 substrate depletion; rainbow trout liver S9; six-surfactant mixture).
`Oc1ccc(/C=C/c2cc(O)cc(O)c2)cc1` gave an EC20 of > 200 µM (mitochondrial swelling; BALB/cByJ female mouse liver mitochondria; 30 min, with: succinate + rotenone; baseline: CaCl2 maximal swelling).
With `CC[C@H](C)CCCCC(=O)N[C@@H](CCN)C(=O)N[C@H](C(=O)N[C@@H](CCN)C(=O)N[C@H]1CCNC(=O)[C@H]([C@@H](C)O)NC(=O)[C@H](CCN)NC(=O)[C@H](CCN)NC(=O)[C@H](CC(C)C)NC(=O)[C@@H](Cc2ccccc2)NC(=O)[C@H](CCN)NC1=O)[C@@H](C)O` the free Cmax was 0.14 µg/mL (equilibrium dialysis LC-MS/MS; human patients, plasma; dose not given, median).
`N#Cc1cn(C(=O)C2CC2)c2cccnc12` gave a half-life of > 240 min (chemical stability; aqueous buffer; pH 7.4).
`Cc1cccc(-c2nc(Nc3ccc4c(c3)OCO4)c3ccccc3n2)n1` gave a t1/2 of > 180 min (mouse, CD1, plasma; oral, 10 mg/kg).
`Cn1c(-c2ccc(C(N)=O)cc2F)nnc1C(C)(C)Oc1c(F)cc(Cl)cc1F` gave an AUC(0-inf) range of 5320 to 11600 ng·h/mL (young Japanese subjects, plasma; oral, 50 mg single dose, day 1).
`CC1(C)S[C@@H]2[C@H](NC(=O)[C@H](N)c3ccc(O)cc3)C(=O)N2[C@H]1C(=O)O` gave an EC20 of > 400 µM (cytochrome c release, ELISA; BALB/cByJ female mouse liver mitochondria; 30 min; baseline: alamethicin maximal release).
For `COc1cccc(N2CCN(C3=Nc4c(F)cccc4[C@H](CC(=O)O)N3c3cc(C(F)(F)F)ccc3OC)CC2)c1`, the clearance was 133 ± 41.4 mL/min (UHPLC-MS/MS; healthy women, plasma; intravenous infusion, 240 mg single dose, 30 min infusion, HPβCD formulation).
